{"data": "Measurements collected from several papers", "PLEC": "PLEC (Homo sapiens, UniProt Q15149)", "note": "Lines come from different studies, so protocols differ.", "UniProt Q00341, sequence (whole entry, looked up)": "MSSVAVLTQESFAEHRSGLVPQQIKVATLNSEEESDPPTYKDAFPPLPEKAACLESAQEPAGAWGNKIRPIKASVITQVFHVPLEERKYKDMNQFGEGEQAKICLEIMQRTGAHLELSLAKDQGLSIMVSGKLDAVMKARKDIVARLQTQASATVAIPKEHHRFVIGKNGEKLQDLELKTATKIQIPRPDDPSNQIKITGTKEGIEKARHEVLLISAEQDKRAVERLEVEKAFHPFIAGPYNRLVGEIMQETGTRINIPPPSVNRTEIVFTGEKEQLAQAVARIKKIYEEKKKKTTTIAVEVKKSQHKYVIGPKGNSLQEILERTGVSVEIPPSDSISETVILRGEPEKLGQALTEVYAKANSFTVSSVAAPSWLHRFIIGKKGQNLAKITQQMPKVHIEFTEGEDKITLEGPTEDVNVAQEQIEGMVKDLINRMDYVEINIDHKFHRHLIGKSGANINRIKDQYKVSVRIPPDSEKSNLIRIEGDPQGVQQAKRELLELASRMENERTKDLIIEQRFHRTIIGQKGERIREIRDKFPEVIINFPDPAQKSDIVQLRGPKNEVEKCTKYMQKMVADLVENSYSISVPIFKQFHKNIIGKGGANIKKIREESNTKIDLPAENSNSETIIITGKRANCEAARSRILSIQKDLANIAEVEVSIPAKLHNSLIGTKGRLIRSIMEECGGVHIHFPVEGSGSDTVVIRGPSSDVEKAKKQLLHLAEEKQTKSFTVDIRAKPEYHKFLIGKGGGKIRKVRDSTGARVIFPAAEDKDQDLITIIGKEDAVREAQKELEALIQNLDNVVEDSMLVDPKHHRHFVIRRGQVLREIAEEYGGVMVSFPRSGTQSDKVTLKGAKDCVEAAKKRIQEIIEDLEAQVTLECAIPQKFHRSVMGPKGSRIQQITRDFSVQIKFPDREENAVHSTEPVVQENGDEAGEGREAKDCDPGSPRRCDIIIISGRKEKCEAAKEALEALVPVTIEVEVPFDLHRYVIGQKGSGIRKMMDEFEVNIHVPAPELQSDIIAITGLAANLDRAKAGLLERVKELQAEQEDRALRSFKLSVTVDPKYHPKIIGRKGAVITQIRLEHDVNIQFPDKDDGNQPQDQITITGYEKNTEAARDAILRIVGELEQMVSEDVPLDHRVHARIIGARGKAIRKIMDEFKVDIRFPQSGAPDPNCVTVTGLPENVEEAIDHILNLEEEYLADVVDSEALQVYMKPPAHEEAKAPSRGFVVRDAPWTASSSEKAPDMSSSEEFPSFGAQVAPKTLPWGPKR", "UniProt Q9NPE3, sequence (whole entry, looked up)": "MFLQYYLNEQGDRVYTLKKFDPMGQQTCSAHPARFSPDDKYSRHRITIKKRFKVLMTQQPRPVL", "UniProt Q99496, sequence (whole entry, looked up)": "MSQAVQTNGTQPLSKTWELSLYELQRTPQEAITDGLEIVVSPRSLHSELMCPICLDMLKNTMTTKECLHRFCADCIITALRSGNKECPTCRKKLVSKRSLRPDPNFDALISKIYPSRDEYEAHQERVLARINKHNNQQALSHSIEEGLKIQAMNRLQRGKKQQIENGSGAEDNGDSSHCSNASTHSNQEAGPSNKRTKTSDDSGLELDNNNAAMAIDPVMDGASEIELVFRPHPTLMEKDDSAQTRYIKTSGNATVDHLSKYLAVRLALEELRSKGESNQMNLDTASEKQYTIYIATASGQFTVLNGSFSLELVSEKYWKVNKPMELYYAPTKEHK", "UniProt Q86Y13, sequence (whole entry, looked up)": "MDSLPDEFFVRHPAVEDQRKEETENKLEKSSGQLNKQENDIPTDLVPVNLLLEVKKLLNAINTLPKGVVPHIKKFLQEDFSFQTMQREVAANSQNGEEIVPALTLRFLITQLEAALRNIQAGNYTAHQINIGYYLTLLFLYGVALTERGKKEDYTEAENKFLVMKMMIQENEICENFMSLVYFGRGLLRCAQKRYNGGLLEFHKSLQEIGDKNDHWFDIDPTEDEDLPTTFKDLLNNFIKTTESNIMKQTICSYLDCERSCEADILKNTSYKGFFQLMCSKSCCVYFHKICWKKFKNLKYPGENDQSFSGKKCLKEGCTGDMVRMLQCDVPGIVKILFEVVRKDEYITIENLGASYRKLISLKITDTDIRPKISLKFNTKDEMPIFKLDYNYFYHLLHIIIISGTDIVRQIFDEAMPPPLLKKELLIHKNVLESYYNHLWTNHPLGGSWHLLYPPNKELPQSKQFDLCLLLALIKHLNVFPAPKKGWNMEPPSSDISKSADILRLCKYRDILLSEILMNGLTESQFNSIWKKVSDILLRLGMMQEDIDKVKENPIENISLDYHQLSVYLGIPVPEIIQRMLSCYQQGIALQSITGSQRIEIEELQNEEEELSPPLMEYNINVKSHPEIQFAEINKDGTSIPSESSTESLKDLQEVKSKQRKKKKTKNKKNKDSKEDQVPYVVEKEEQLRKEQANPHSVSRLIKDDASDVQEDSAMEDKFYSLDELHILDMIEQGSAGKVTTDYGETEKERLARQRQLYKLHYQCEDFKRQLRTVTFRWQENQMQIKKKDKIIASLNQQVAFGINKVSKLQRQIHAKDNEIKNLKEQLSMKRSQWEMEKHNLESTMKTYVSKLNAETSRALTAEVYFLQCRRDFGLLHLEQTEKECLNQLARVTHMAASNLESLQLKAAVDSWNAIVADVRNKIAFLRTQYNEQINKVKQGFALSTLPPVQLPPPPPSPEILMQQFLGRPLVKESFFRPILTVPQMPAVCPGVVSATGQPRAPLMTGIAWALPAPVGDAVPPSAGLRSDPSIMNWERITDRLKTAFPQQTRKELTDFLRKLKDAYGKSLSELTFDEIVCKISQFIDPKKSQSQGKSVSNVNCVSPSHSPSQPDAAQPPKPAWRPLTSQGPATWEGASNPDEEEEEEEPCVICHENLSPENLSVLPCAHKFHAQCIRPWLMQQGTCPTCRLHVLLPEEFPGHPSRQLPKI", "UniProt P10809, sequence (whole entry, looked up)": "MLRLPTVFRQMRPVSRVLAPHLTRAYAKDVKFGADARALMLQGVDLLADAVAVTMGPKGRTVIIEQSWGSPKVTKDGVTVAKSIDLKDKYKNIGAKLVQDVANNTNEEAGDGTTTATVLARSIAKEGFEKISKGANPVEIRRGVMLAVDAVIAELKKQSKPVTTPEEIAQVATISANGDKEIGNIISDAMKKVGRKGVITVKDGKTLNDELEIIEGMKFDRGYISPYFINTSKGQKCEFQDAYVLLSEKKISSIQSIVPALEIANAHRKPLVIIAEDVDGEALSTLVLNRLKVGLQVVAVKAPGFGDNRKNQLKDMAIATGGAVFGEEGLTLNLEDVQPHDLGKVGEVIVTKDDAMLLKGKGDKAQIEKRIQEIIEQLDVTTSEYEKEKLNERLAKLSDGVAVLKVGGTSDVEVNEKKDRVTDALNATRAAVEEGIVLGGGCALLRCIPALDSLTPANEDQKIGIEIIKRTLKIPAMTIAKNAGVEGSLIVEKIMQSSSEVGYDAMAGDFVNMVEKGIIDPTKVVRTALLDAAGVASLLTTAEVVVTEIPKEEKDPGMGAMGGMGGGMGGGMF", "UniProt Q9GZN7, sequence (whole entry, looked up)": "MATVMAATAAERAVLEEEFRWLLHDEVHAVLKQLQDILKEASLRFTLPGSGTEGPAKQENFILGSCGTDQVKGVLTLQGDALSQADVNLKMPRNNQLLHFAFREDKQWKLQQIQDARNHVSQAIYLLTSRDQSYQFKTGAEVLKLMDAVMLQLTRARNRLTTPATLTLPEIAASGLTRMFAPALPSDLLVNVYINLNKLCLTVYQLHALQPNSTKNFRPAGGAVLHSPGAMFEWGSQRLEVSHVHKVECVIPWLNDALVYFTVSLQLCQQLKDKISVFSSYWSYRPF", "UniProt Q8IUD2, sequence (whole entry, looked up)": "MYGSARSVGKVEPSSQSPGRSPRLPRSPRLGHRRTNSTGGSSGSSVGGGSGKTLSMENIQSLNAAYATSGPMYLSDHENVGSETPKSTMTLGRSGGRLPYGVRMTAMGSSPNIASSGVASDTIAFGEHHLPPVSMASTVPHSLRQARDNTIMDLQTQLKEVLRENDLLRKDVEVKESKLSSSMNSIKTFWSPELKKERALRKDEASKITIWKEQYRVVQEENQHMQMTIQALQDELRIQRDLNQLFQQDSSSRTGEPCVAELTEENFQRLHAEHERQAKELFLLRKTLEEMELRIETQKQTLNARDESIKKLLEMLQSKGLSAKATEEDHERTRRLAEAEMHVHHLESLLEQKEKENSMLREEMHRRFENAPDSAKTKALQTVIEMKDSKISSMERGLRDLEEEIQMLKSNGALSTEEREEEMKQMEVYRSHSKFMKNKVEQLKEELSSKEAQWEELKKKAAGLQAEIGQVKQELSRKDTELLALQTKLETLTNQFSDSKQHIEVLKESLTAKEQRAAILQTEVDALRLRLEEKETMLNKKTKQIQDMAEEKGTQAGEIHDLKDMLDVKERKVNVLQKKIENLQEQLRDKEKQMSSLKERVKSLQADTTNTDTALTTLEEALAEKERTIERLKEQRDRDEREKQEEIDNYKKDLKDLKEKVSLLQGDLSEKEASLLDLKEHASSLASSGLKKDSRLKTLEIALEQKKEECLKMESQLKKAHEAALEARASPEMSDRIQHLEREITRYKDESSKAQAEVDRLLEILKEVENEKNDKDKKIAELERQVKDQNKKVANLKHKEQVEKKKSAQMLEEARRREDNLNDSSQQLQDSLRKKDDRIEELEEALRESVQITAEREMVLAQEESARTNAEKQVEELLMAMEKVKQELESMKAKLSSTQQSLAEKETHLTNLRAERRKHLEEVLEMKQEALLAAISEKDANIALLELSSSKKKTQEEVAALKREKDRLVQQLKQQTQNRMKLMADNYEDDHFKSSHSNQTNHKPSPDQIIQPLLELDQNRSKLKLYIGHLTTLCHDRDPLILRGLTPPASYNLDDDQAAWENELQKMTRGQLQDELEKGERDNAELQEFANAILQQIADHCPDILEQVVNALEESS"}
{"Substance": "BMI1 (Homo sapiens, UniProt P35226)", "tested on": "RNF2 (Homo sapiens, UniProt Q99496)", "test": "cross-linking MS", "conditions": "together with: BS3", "quantity": "cross-linked residues", "value": "K232 to K133"}
{"Substance": "HDLBP (Homo sapiens, UniProt Q00341)", "tested on": "DZIP3 (Homo sapiens, UniProt Q86Y13)", "test": "cross-linking MS", "test system": "cells", "conditions": "together with: iqPIR", "quantity": "cross-linked residues", "value": "K382 to K1061"}
{"Substance": "TCP1 (Homo sapiens, UniProt P17987)", "tested on": "CCT2 (Homo sapiens, UniProt P78371)", "test": "cross-linking MS", "conditions": "together with: DSSO", "quantity": "cross-linked residues", "value": "K126 to K46"}
{"Substance": "KLHL31 (Homo sapiens, UniProt Q9H511)", "tested on": "KIAA1210 (Homo sapiens, UniProt Q9ULL0)", "test": "cross-linking MS", "conditions": "together with: DSSO", "quantity": "cross-linked residues", "value": "K10 to K1667"}
{"Substance": "human eRF3a", "tested on": "PP6C (human)", "test": "co-immunoprecipitation, IP-MS", "test system": "CYB5R4 knockout cells", "conditions": "concentration not given", "scale": "relative to: CYB5R4 knockout over parental", "quantity": "log2 fold change", "value": 0.09}
{"Substance": "FGA (Homo sapiens, UniProt P02671)", "tested on": "WSCD2 (Homo sapiens, UniProt Q2TBF2)", "test": "cross-linking MS", "conditions": "together with: DSSO", "quantity": "cross-linked residues", "value": "K620 to K3"}
{"Substance": "colistin", "tested on": "Enterobacter cloacae", "test system": "clinical isolate RKI 571/13", "quantity": "MIC", "value": "≤ 0.5 µg/mL"}
{"Substance": "TCP1 (Homo sapiens, UniProt P17987)", "tested on": "CCT4 (Homo sapiens, UniProt P50991)", "test": "cross-linking MS", "test system": "cells", "conditions": "together with: BDP-NHP", "quantity": "cross-linked residues", "value": "K126 to K55"}
{"Substance": "SERPINB1 (Homo sapiens, UniProt P30740)", "tested on": "SNCA (Homo sapiens, UniProt P37840)", "test": "cross-linking MS", "conditions": "together with: DSSO or DMTMM", "quantity": "cross-linked residues", "value": "D312 to K10"}
{"Substance": "DKC1 (Homo sapiens, UniProt O60832)", "tested on": "NOP10 (Homo sapiens, UniProt Q9NPE3)", "test": "cross-linking MS", "test system": "cells", "conditions": "together with: iqPIR", "quantity": "cross-linked residues", "value": "K80 to K53"}
{"Substance": "cofilin-1, human", "tested on": "PP6C (human)", "test": "co-immunoprecipitation, IP-MS", "test system": "CYB5R4 knockout cells", "conditions": "concentration not given", "scale": "relative to: CYB5R4 knockout over parental", "quantity": "log2 fold change", "value": -0.23}
{"Substance": "SERPINF2 (Homo sapiens, UniProt P08697)", "tested on": "GALNT18 (Homo sapiens, UniProt Q6P9A2)", "test": "cross-linking MS", "conditions": "together with: DSSO", "quantity": "cross-linked residues", "value": "K170 to K211"}
{"Substance": "RAB7A (Homo sapiens, UniProt P51149)", "tested on": "VPS29 (Homo sapiens, UniProt Q9UBQ0)", "test": "cross-linking MS", "test system": "cells", "conditions": "together with: iqPIR", "quantity": "cross-linked residues", "value": "K137 to K30"}
{"Substance": "FGB (Homo sapiens, UniProt P02675)", "tested on": "NBEAL1 (Homo sapiens, UniProt Q6ZS30)", "test": "cross-linking MS", "conditions": "together with: DSSO", "quantity": "cross-linked residues", "value": "K77 to K1974"}
{"Substance": "HSPD1 (Homo sapiens, UniProt P10809)", "tested on": "ERC1 (Homo sapiens, UniProt Q8IUD2)", "test": "cross-linking MS", "test system": "cells", "conditions": "together with: iqPIR", "quantity": "cross-linked residues", "value": "K473 to K797"}
{"Substance": "Hemoglobin subunit alpha (Homo sapiens, UniProt P69905)", "tested on": "KRT76 (Homo sapiens, UniProt Q01546)", "test": "cross-linking MS", "conditions": "together with: DSSO or DMTMM", "quantity": "cross-linked residues", "value": "D48 to K398"}
{"Substance": "ROGDI (Homo sapiens, UniProt Q9GZN7)", "tested on": "WDR7 (Homo sapiens, UniProt Q9Y4E6)", "test": "cross-linking MS", "test system": "purified complex", "conditions": "together with: DSSO", "quantity": "cross-linked residues", "value": "K137 to K321"}
{"Substance": "RSL1D1 (Homo sapiens, UniProt O76021)", "tested on": "PLEC", "test": "cross-linking MS", "test system": "cells", "conditions": "together with: iqPIR", "quantity": "cross-linked residues", "value": "K395 to K2189"}
{"Substance": "CD109 (Homo sapiens, UniProt Q6YHK3)", "tested on": "PRPF31 (Homo sapiens, UniProt Q8WWY3)", "test": "cross-linking MS", "test system": "cells", "conditions": "together with: BDP-NHP", "quantity": "cross-linked residues", "value": "K560 to K471"}
{"Substance": "KRT8 (Homo sapiens, UniProt P05787)", "tested on": "PLEC", "test": "cross-linking MS", "test system": "cells", "conditions": "together with: iqPIR", "quantity": "cross-linked residues", "value": "K122 to K3849"}
{"Substance": "EEF1E1 (Homo sapiens, UniProt O43324)", "tested on": "DARS1 (Homo sapiens, UniProt P14868)", "test": "cross-linking MS", "test system": "cells", "conditions": "together with: BDP-NHP", "quantity": "cross-linked residues", "value": "K138 to K374"}
{"Substance": "VIM (Homo sapiens, UniProt P08670)", "tested on": "CCT7 (Homo sapiens, UniProt Q99832)", "test": "cross-linking MS", "test system": "cells", "conditions": "together with: iqPIR", "quantity": "cross-linked residues", "value": "K120 to K153"}
{"Substance": "S100A10 (Homo sapiens, UniProt P60903)", "tested on": "GTF3C1 (Homo sapiens, UniProt Q12789)", "test": "cross-linking MS", "test system": "cells", "conditions": "together with: BDP-NHP", "quantity": "cross-linked residues", "value": "K37 to K985"}
{"Substance": "BLTP3B (Homo sapiens, UniProt A0JNW5)", "tested on": "Histone H4 (Homo sapiens, UniProt P62805)", "test": "cross-linking MS", "conditions": "together with: DSSO", "quantity": "cross-linked residues", "value": "K408 to K78"}
{"note": "For quick reference, copied from above:"}
{"Substance": "colistin", "tested on": "Enterobacter cloacae", "test system": "clinical isolate RKI 571/13", "quantity": "MIC", "value": "≤ 0.5 µg/mL"}
{"Substance": "TCP1 (Homo sapiens, UniProt P17987)", "tested on": "CCT4 (Homo sapiens, UniProt P50991)", "test": "cross-linking MS", "test system": "cells", "conditions": "together with: BDP-NHP", "quantity": "cross-linked residues", "value": "K126 to K55"}
{"Substance": "SERPINB1 (Homo sapiens, UniProt P30740)", "tested on": "SNCA (Homo sapiens, UniProt P37840)", "test": "cross-linking MS", "conditions": "together with: DSSO or DMTMM", "quantity": "cross-linked residues", "value": "D312 to K10"}
{"Substance": "DKC1 (Homo sapiens, UniProt O60832)", "tested on": "NOP10 (Homo sapiens, UniProt Q9NPE3)", "test": "cross-linking MS", "test system": "cells", "conditions": "together with: iqPIR", "quantity": "cross-linked residues", "value": "K80 to K53"}
